Experimental data gathered from unrelated publications.
Lines come from different studies, so protocols differ. ± marks the error that the study gave.
HCRTR1: Orexin/Hypocretin receptor type 1 (HCRTR1, Homo sapiens, UniProt O43613)
PPIA: Peptidyl-prolyl cis-trans isomerase A (PPIA, Homo sapiens, UniProt P62937)
GRB2: Growth factor receptor-bound protein 2 (GRB2, Homo sapiens, UniProt P62993)
LRP1 CR3 domain: LRP1, CR3 domain (Homo sapiens, UniProt Q07954)
LRP1 CR5 domain: LRP1, CR5 domain (Homo sapiens, UniProt Q07954)

With `CCOc1cc2c(cc1OC)CCN(CC(=O)NCc1ccccn1)C2Cc1ccc(OC)c(OC)c1` (stereo not shown) the Kd was 0.0874 ± 0.012 µM (HCRTR1).
The Kd of `NC[C@H]1O[C@H](O[C@H]2[C@H](O)[C@@H](O[C@H]3O[C@H](CO)[C@@H](O)[C@H](N)[C@H]3O)[C@H](N)C[C@@H]2N)[C@H](N)C[C@@H]1O` is reported as 7.8 ± 1.1 µM (HIV-1 SL4 RNA stem-loop; binding, ESI-FTMS titration; pH 7.5).
With `COc1ccc(CC2c3cc(OCC(F)(F)F)c(OC)cc3CCN2CC(=O)NCc2ccccn2)cc1OC` (stereo not shown) the Kd was 0.0225 ± 0.0027 µM (HCRTR1).
`COc1cc(OC)cc(C(=O)Nc2ccc(Cc3ccc(NC(=O)c4cc(OC)cc(OC)c4)cc3)cc2)c1` gave a Kd of 3.3 µM (PPIA; binding, SPR; pH 7.4).
`CCCCCCCNCC(P(=O)(O)O)P(=O)(O)O` gave a Kd of 0.0383 µM (Farnesyl diphosphate synthase (Trypanosoma cruzi, UniProt Q8WS26); binding, isothermal titration calorimetry; 28 °C, second site, two-site model).
`COc1ccc(CC2c3cc(OCC4CCCCC4)c(OC)cc3CCN2CC(=O)NCc2ccccc2)cc1OC` (stereo not shown) has a Kd of greater than 10 µM (HCRTR1).
`C[C@H](NS(=O)(=O)c1cccc2c(N(C)C)cccc12)C(=O)N[C@@H](C)C(=O)N1CCC[C@H]1C(=O)N[C@@H](Cc1ccccc1)C(=O)O` gave a Kd of 107 ± 30 µM (PPIA (Homo sapiens, UniProt P62937, G74A/G75A); binding, FRET titration; 4 °C, together with: dansylated peptide).
`hemin` has a Kd of 0.038 ± 0.027 µM (Transcriptional regulator LmrR (Lactococcus cremoris, UniProt A2RI36, K55D/K59Q); tryptophan fluorescence quenching; pH 7.0, 150 mM NaCl).
With `COc1ccc(CC2c3cc(OC)c(OC)cc3CCN2CC(=O)NCc2ccccn2)cc1OC` (stereo not shown) the Kd was 0.261 ± 0.12 µM (HCRTR1).
With `Nc1ncnc2c1ncn2[C@@H]1O[C@H](COP(=O)(O)OP(=O)(O)OP(=O)(O)O)[C@@H](O)[C@H]1O` the Kd was 74 µM (MET (Homo sapiens, UniProt P08581)).
For `COc1cccc2c1C(=O)c1c(O)c3c(c(O)c1C2=O)C[C@@](O)(C(C)=O)C[C@@H]3O[C@H]1C[C@H](N)[C@H](O)[C@H](C)O1`, the Kd was 44.7 ± 4 µM (HIV-1 nucleocapsid-SL2 RNA complex; binding, ESI-FTMS; pH 7.5).
With `N[C@@H](CCCNC1=NC(=O)CN1)C(=O)O` the Kd was 0.043 µM (AGER (Homo sapiens, UniProt Q15109); binding, fluorescence; pH 6.5).
With `CC(=O)OC1OC(OC(C)=O)[C@@H]2CCC=C[C@H]12` (stereo partly shown) the Kd was greater than 10 µM (PPIA; binding, SPR; pH 4.5).
For `[I-].[K+]`, the Kd was 4820 µM (SLC4A1 (Homo sapiens, UniProt P02730); 36Cl exchange flux, inhibitor, Dixon plot; human red blood cells; pH 10 external, 0 °C, internal Cl 129 mM, CHES buffer).
`O=C(O)c1cc(=O)[nH]c(=O)n1[C@@H]1OC[C@@H](O)[C@H]1O` has a Kd of greater than 100000 µM (Orotidine 5'-phosphate decarboxylase (Saccharomyces cerevisiae S288c, UniProt P03962, S154A); HPLC initial velocity; 25 °C, lower limit, no saturation).
The Kd of `CC(C)C[C@H](NC(=O)[C@H](CC(N)=O)NC(=O)[C@H](CCCNC(=N)N)NC(=O)[C@H](CC(=O)O)NC(=O)[C@@H](NC(=O)[C@@H]1CCCN1C(=O)[C@@H]1CCCN1C(=O)[C@@H]1CCCN1)C(C)C)C(=O)N[C@@H](CCCCN)C(=O)N1CCC[C@H]1C(=O)N[C@@H](CC(=O)O)C(=O)N[C@@H](C)C(=O)O` is reported as 132 µM (GRB2; binding, ITC; pH 8).
The Kd of `COC(=O)[C@H](CCCCN)NC(C)=O` is reported as 1900 ± 90 µM (LRP1 CR3 domain; binding, tryptophan fluorescence titration; isolated CR3 domain; pH 7.4, 298 K, ionic strength 0.02).
`COc1ccc(CC2c3cc(OC)c(OC)cc3CCN2CC(=O)NCCCc2ccccc2)cc1OC` (stereo not shown) has a Kd of 2.37 ± 0.24 µM (HCRTR1).
With `O=C(c1cc(-c2cc(F)cc([N+](=O)[O-])c2O)cc([N+](=O)[O-])c1O)C1CCc2ccccc21` (stereo not shown) the Kd was 0.54 µM (PPIA; ligand displacement, FP; pH 7.8).
The Kd of `CC[C@H](C)[C@H](NC(=O)[C@H](C)N)C(=O)N1CCC[C@H]1C(=O)N1CCC[C@H]1C(=O)N1CCC[C@H]1C(=O)N[C@@H](CCCNC(=N)N)C(=O)N1CCC[C@H]1C(=O)N1CCC[C@H]1C(=O)N[C@@H](CCCCN)C(=O)N1CCC[C@H]1C(=O)N[C@@H](Cc1c[nH]cn1)C(=O)N1CCC[C@H]1C(=O)O` is reported as 179 µM (GRB2; binding, ITC; pH 8).
With `O=C1OC2(c3ccccc31)c1ccc(O)c(O)c1Oc1c2ccc(O)c1O` the Kd was 0.325 µM (Guanine nucleotide-binding protein G(I)/G(S)/G(T) subunit beta-1, with gamma subunit (Homo sapiens, UniProt P62873); binding, SPR).
For `phosphatidylinositol 3,4,5-trisphosphate`, the Kd was greater than 100 µM (Src kinase-associated phosphoprotein 2, PH domain (Skap2, Mus musculus, UniProt Q3UND0, R140M); fluorescence polarization direct titration; pH 6.5, 21 °C, compound labelled with BODIPY TMR-X).
For `CC(=O)N[C@@H](CCCCN)C(=O)N[C@@H](CCCNC(=N)N)C(=O)N[C@@H](CC(C)C)C(=O)N[C@@H](CCCNC(=N)N)C(=O)N[C@@H](CCCNC(=N)N)C(=O)N[C@@H](CO)C(=O)N[C@@H](C)C(=O)N[C@@H](Cc1c[nH]cn1)C(=O)N[C@@H](C)C(=O)N[C@@H](CCCNC(=N)N)C(=O)N[C@@H](CCCCN)C(=O)N[C@@H](CCC(=O)O)C(=O)N[C@H](C(=O)N[C@@H](CCC(=O)O)C(=O)N[C@@H](Cc1ccccc1)C(=O)N[C@@H](CC(C)C)C(=O)N[C@@H](CCCNC(=N)N)C(=O)N[C@@H](CC(C)C)C(=O)N[C@@H](CCCCN)C(=O)N[C@@H](CCCNC(=N)N)C(=O)N[C@H](C(=O)N[C@@H](CCCNC(=N)N)C(=O)N[C@@H](CC(C)C)C(=O)NCC(=O)N[C@@H](CC(C)C)C(=O)N[C@@H](CCC(=O)O)C(=O)N[C@@H](Cc1ccc(O)cc1)C(N)=O)[C@@H](C)O)[C@@H](C)O`, the Kd was 0.4 µM (Protein S100-B (Homo sapiens, UniProt P04271); binding, isothermal titration calorimetry; low salt, together with: Ca2+ 5 mM; higher-affinity site).
With `O=C1c2c(O)ccc(O)c2C(=O)c2c(NCCNCCO)ccc(NCCNCCO)c21` the Kd was 11.9 ± 1.8 µM (HIV-1 nucleocapsid-SL2 RNA complex; binding, ESI-FTMS; pH 7.5).
The Kd of `CC(C)C[C@@H](NC(=O)[C@H](NC(=O)[C@@H](CCC(=O)O)NC(=O)[C@H](NC(=O)[C@@H](CC(=O)O)NC(=O)c1ccc(S(N)(=O)=O)cc1)C(C)C)C(C)C)C(N)=O` is reported as 0.082 µM (CA2 (Homo sapiens, UniProt P00918); binding, SPR).
With `CC(C)C[C@H](NC(=O)[C@H](CCCNC(=N)N)NC(=O)[C@@H](N)CC(N)=O)C(=O)N[C@@H](CC(C)C)C(=O)N[C@H](C(=O)NCC(=O)O)[C@@H](C)O` the Kd was 0.891 µM (dnaK (Escherichia coli, UniProt P0A6Y8); peptide binding, surface plasmon resonance; together with: ATP).
The Kd of `C[C@H](N)C(=O)N[C@H](CCC(=O)O)C(N)=O` is reported as 0.668 µM (NLRP1 (Homo sapiens, UniProt Q9C000); binding, SPR).
With `Aspartic acid methyl ester` the Kd was 83000 ± 17000 µM (LRP1 CR3 domain; tryptophan fluorescence titration; pH 5.5, CR3 domain, low ionic strength).
`COC(=O)c1cc(CCc2ccc(NC(=O)c3cc(OC)cc(OC)c3)c(C(=O)OC)c2)ccc1NC(=O)c1cc(OC)cc(OC)c1` gave a Kd of 87.5 µM (PPIA; binding, SPR; pH 7.4).
`COC(=O)[C@@H](N)CCCN=C(N)N` gave a Kd of 760 ± 60 µM (LRP1 CR3 domain; tryptophan fluorescence titration; pH 7.4, 298 K, CR3 domain, ionic strength 0.02).
The Kd of `COc1ccc(CC2c3cc(OC)c(OC)cc3CCN2CC(=O)Nc2ccccc2-c2ccccc2)cc1OC` (stereo not shown) is reported as 0.944 ± 0.16 µM (HCRTR1).
`COC(=O)[C@@H](N)CCCCN` has a Kd of 400 ± 20 µM (LRP1 CR5 domain; binding, tryptophan fluorescence titration; isolated CR5 domain; pH 7.4, 298 K, ionic strength 0.17).
`Cc1cn([C@H]2C[C@H](O)[C@@H](COP(=O)(O)OP(=O)(O)OP(=O)(O)O)O2)c(=O)[nH]c1=O` gave a Kd of 57 ± 8 µM (DNA polymerase 3 (dpo3, Saccharolobus solfataricus, UniProt P95979, D236A); nucleotide binding, substrate, single-turnover kinetics; pH 7.5, 37 °C, correct incorporation).
`COC(=O)[C@@H](N)Cc1c[nH]cn1` gave a Kd of 330 ± 10 µM (LRP1 CR5 domain; tryptophan fluorescence titration; pH 5.5, CR5 domain, low ionic strength).
`COc1ccc(CC2c3cc(OCc4ccccc4)c(OC)cc3CCN2CC(=O)NCc2ccccc2)cc1OC` (stereo not shown) has a Kd of 0.402 ± 0.058 µM (HCRTR1).
`CC(C)C[C@H](NC(=O)[C@H](CC(N)=O)NC(=O)[C@H](CCCNC(=N)N)NC(=O)[C@H](CC(=O)O)NC(=O)[C@@H](NC(=O)[C@@H]1CCCN1C(=O)[C@@H]1CCCN1C(=O)[C@H](C)N)C(C)C)C(=O)N[C@@H](CCCCN)C(=O)N1CCC[C@H]1C(=O)N[C@@H](CC(=O)O)C(=O)N[C@@H](CCCNC(=N)N)C(=O)O` gave a Kd of 99 µM (GRB2; binding, ITC; pH 8).
For `CC[n+]1c(-c2ccccc2)c2cc(N)ccc2c2ccc(N)cc21`, the Kd was 1.9 ± 0.2 µM (HIV-1 SL3 RNA stem-loop; binding, ESI-FTMS titration; pH 7.5).
With `CSc1cc(-c2ccc(F)cc2)[nH]n1` the Kd was 5200 µM (Regulator of G-protein signaling 17 (Homo sapiens, UniProt Q9UGC6); binding, NMR).
For `COc1ccc(CC2c3cc(OC)c(OC)cc3CCN2CC(=O)Nc2cccc(-c3ccccc3)c2)cc1OC` (stereo not shown), the Kd was 8.98 ± 2.2 µM (HCRTR1).
`CC(=O)O[C@H]1C(=O)[C@@]2(C)[C@H]([C@H](OC(=O)c3ccccc3)[C@]3(O)C[C@H](OC(=O)[C@H](O)[C@@H](NC(=O)c4ccccc4)c4ccccc4)C(C)=C1C3(C)C)[C@]1(OC(C)=O)CO[C@@H]1C[C@@H]2O` has a Kd of 24.4 ± 5.2 µM (Cytochrome P450 2C8 (CYP2C8, Homo sapiens, UniProt P10632); binding, equilibrium spectral titration; purified enzyme; pH 7.4, 25 °C, second site, two-site model, together with: 2 µM enzyme).
The Kd of `CC1=C(/C=C/C(C)=C/C=C/C(C)=C/C=C/C=C(C)/C=C/C=C(C)/C=C/C2=C(C)C(=O)[C@@H](O)CC2(C)C)C(C)(C)C[C@H](O)C1=O` is reported as 1.16 ± 0.02 µM (GSTP1 (Homo sapiens, UniProt P09211); surface plasmon resonance; 25 °C, 1:1 binding model).
`COCc1c(C(C)C)nc(C(C)C)c(/C=C/[C@@H](O)C[C@@H](O)CC(=O)O)c1-c1ccc(F)cc1` gave a Kd of 0.16 ± 0.02 µM (Cytochrome P450 2C8 (CYP2C8, Homo sapiens, UniProt P10632, K399R/R139K); ligand binding, equilibrium spectral binding; purified protein; pH 7.4, 25 °C, high-affinity site, 1% CHAPS).
For `Oc1ccc2ccccc2c1`, the Kd was 0.46 µM (alpha-2u-globulin (Rattus rattus); binding, fluorescence titration; pH 7.2).

Excerpt of the above:
`O=C(O)c1cc(=O)[nH]c(=O)n1[C@@H]1OC[C@@H](O)[C@H]1O` has a Kd of greater than 100000 µM (Orotidine 5'-phosphate decarboxylase (Saccharomyces cerevisiae S288c, UniProt P03962, S154A); HPLC initial velocity; 25 °C, lower limit, no saturation).
The Kd of `C[C@H](N)C(=O)N[C@H](CCC(=O)O)C(N)=O` is reported as 0.668 µM (NLRP1 (Homo sapiens, UniProt Q9C000); binding, SPR).
`COC(=O)[C@@H](N)Cc1c[nH]cn1` gave a Kd of 330 ± 10 µM (LRP1 CR5 domain; tryptophan fluorescence titration; pH 5.5, CR5 domain, low ionic strength).
`CC(=O)O[C@H]1C(=O)[C@@]2(C)[C@H]([C@H](OC(=O)c3ccccc3)[C@]3(O)C[C@H](OC(=O)[C@H](O)[C@@H](NC(=O)c4ccccc4)c4ccccc4)C(C)=C1C3(C)C)[C@]1(OC(C)=O)CO[C@@H]1C[C@@H]2O` has a Kd of 24.4 ± 5.2 µM (Cytochrome P450 2C8 (CYP2C8, Homo sapiens, UniProt P10632); binding, equilibrium spectral titration; purified enzyme; pH 7.4, 25 °C, second site, two-site model, together with: 2 µM enzyme).
For `phosphatidylinositol 3,4,5-trisphosphate`, the Kd was greater than 100 µM (Src kinase-associated phosphoprotein 2, PH domain (Skap2, Mus musculus, UniProt Q3UND0, R140M); fluorescence polarization direct titration; pH 6.5, 21 °C, compound labelled with BODIPY TMR-X).
